Published values from different studies.
Numbers after ± are the reported error.

`C=CCNc1c(O)cc2c(O)c1C[C@@H](C)C[C@H](OC)[C@H](O)[C@@H](C)/C=C(\C)[C@H](OC(N)=O)[C@@H](OC)/C=C\C=C(/C)C(=O)N2` — result for “patients with AST increase”: 0% (unresectable or metastatic sarcoma; intravenous, 150 mg/m^2, grade 3-4 lab change).
With `CC(C)Nc1ccnc(Nc2cccc(-c3cccnc3)c2)n1` the blood chemistry was 5.4 g/dL (refers to: total protein; mouse, blood; intraperitoneal, 10 mg/kg).
`CC(C)[C@@H]1NC(=O)CNC(=O)[C@H](CC(N)=O)NC(=O)[C@H](CCCNC(=N)N)NC(=O)[C@H](Cc2ccc(O)cc2)NC(=O)[C@H](C(C)C)NC(=O)[C@@H](NC(=O)[C@@H](NC(=O)[C@H](CC(N)=O)NC(=O)[C@H](Cc2c[nH]c3ccccc23)NC(=O)[C@H](C)NC(=O)[C@H](Cc2ccccc2)NC(=O)CN)C(C)C)CSSC[C@@H](C(=O)N[C@@H](Cc2cnc[nH]2)C(=O)N[C@@H](CCCNC(=N)N)C(=O)N[C@@H](CCCNC(=N)N)C(=O)N[C@@H](C)C(=O)N[C@@H](CC(N)=O)C(N)=O)NC(=O)[C@H](C(C)C)NC(=O)[C@H](CCCNC(=N)N)NC1=O` gave a lymphocytes of 76.46 ± 0.69% (ICR mice, blood; intraperitoneal, 5 mg/kg, day 5).
`CCCCCOc1ccc(-c2ccc(-c3ccc(C(=O)N[C@H]4C[C@@H](O)[C@@H](OCC[N+](C)(C)C)NC(=O)[C@@H]5[C@@H](O)[C@@H](C)CN5C(=O)[C@H]([C@@H](C)O)NC(=O)[C@H]([C@H](O)[C@@H](O)c5ccc(O)cc5)NC(=O)[C@@H]5C[C@@H](O)CN5C(=O)[C@H]([C@@H](C)O)NC4=O)cc3)cc2)cc1` gave an AUC(0-168 h) of 659 µg·h/mL (adult patients in ICU, plasma; intravenous, 400 mg loading, after first dose, median).
For `CCCCCCCC(=O)N[C@@H](CCCCN)C(=O)N[C@@H](CCCCN)C(=O)N[C@@H](C)C(=O)N[C@@H](CC(C)C)C(=O)N[C@@H](CCCCN)C(=O)N[C@@H](CC(C)C)C(=O)N[C@@H](C)C(=O)N[C@@H](CCCCN)C(=O)N[C@@H](CCCCN)C(=O)N1CCC[C@H]1C(=O)N[C@@H](CC(C)C)C(=O)N[C@@H](CCCCN)C(=O)N[C@@H](CC(C)C)C(=O)N[C@@H](CC(C)C)C(=O)N[C@@H](CCCCN)C(N)=O`, “volume of distribution” read 1.46 ± 0.149 L/kg (mouse ICR CD1 female, whole blood; intravenous bolus, 3 mg/kg).
The accuracy of `O=c1ccc2ccc3occc3c2o1` is reported as 102% (three freeze-thaw cycles; rat plasma; 8 ng/mL, -70 °C freeze).
Under “treatment-emergent adverse events”, `CC(C)(O)c1cc(Nc2cc(Oc3cn(C4CC4)nc3C3CCOCC3)ccn2)ccn1` is recorded as 0% (Anemia; advanced cancer patients, dose escalation; oral, dose not given, 3 weeks on/1 off, all causality grade ≥3).
`O=C(O)CCCOc1ccc(F)cc1-c1cc(-c2ccccc2C(F)(F)F)n(-c2ccccc2)n1`: “serum protein fraction” 18.8 ± 0.9% (refers to: α1-glb; Crl:CD(SD) rats, female, serum; iv, 25 µg/kg, 14 days).
`C[C@]1(O)C[C@@](N)(c2ccc(-c3nc4n(c3-c3ccccc3)COc3ccncc3-4)cc2)C1`: “patients with grade ≥3 Dyspnea TEAE” 14.3% (human, advanced or metastatic solid tumours; intermittent, dose escalation total).
Under “incidence of Fatigue TEAE”, `CO[C@H]1C[C@@H]2CC[C@@H](C)[C@@](O)(O2)C(=O)C(=O)N2CCCC[C@H]2C(=O)O[C@H]([C@H](C)C[C@@H]2CC[C@@H](OC(=O)NCCOCCOCCOCCOCCOCCOCCOCCOCCC(=O)N3CCc4cc(Cn5nc(-c6ccc7oc(N)nc7c6)c6c(N)ncnc65)ccc4C3)[C@H](OC)C2)C[C@@H](O)[C@H](C)/C=C(\C)[C@@H](O)[C@@H](OC)C(=O)[C@H](C)C[C@H](C)/C=C/C=C/C=C/1C` is recorded as 3.5% (patients with advanced solid tumours; intravenous, dose not given, grade ≥3).
`C[C@]1(CO)Cc2ncn(-c3ccc(C#N)c(Cl)c3)c2C(=O)O1`: “tmax at steady state” 30 min (human, plasma; 10 mg once daily, fasted).
For `COc1cc2c(Oc3ccc4[nH]c(C)cc4c3F)ccnc2cc1OCC1(N)CC1`, “mouth ulcer incidence” read 0% (paediatric refractory sarcoma patients; 8 mg).
For `C[C@@H](NC(=O)N1C(=O)[C@H](Cc2ccnc(N)c2)[C@H]1C(=O)O)C1CCCCC1`, “abnormal liver function leading to discontinuation” read 7.5% (healthy Chinese adult volunteers; continuous intravenous infusion, dose not given, 5.0 days, all doses pooled).
For `Cn1nccc1[C@]1(CNC(=O)c2ccc(F)c(F)c2-c2ccc(C(F)(F)F)cc2)NC(=O)NC1=O`, the dose-normalised AUC was 3 kg·h/L (rat; oral, 1.0 mg/kg).

For quick reference, copied from above:
`C[C@]1(CO)Cc2ncn(-c3ccc(C#N)c(Cl)c3)c2C(=O)O1`: “tmax at steady state” 30 min (human, plasma; 10 mg once daily, fasted).
For `COc1cc2c(Oc3ccc4[nH]c(C)cc4c3F)ccnc2cc1OCC1(N)CC1`, “mouth ulcer incidence” read 0% (paediatric refractory sarcoma patients; 8 mg).
